Measurements pooled from the literature.
Protocols differ between the studies behind these lines. Values joined by “and” are separate records of one study, mostly repeats; a detail may differ. ± marks the error that the study gave.
MT-CYB/UQCRFS1: MT-CYB/UQCRFS1 (Homo sapiens, UniProt P00156+P47985)
TOP2A: DNA topoisomerase 2-alpha (TOP2A, Homo sapiens, UniProt P11388)
Dehaloperoxidase B ferric: Dehaloperoxidase B, ferric (Amphitrite ornata, UniProt Q9NAV7)
PTGDR: Prostaglandin D2 receptor (PTGDR, Homo sapiens, UniProt Q13258)
KEAP1 Kelch domain: Kelch-like ECH-associated protein 1, Kelch domain (KEAP1, Homo sapiens, UniProt Q14145)

Under “log fold enrichment”, `CCCCC[S+]([O-])c1n[nH]c(N)n1` (stereo not drawn) is recorded as 0.173 (YTHDF2 (Homo sapiens, UniProt Q9Y5A9); binding, affinity selection mass spectrometry; baseline: other proteins in batch).
`CCOc1ccc(NC(=O)O[C@H](Cn2nc(C(C)C)cc2C(C)C)C(C)C)cc1`: “ACh peak current” 94 ± 6% (Neuronal acetylcholine receptor; alpha4/beta2, (α4)2(β2)3 stoichiometry (Homo sapiens, UniProt P17787+P43681); ion current, potentiator, TEVC; 1 µM, high-sensitivity (α4)2(β2)3, with: ACh 10 µM; baseline: ACh alone).
The protein adduct of `CCC1(O)CCCN(C(=O)c2ccc(-c3ccc(F)c(NC(=O)CCl)c3)cc2)C1` (stereo not drawn) is reported as 0% (DNA dC->dU-editing enzyme APOBEC-3A (Homo sapiens, UniProt P31941); covalent modifier, intact protein mass spectrometry, item: adduct +26691 Da; 250 µM, 1 h, 10-fold molar excess).
The GTP hydrolysis of `Nc1ncnc2c1ncn2[C@H]1C[C@H](O)[C@@H](CO)O1` is reported as 98.4% and 94.7% and 96% (GNAS, with Gbeta and Ggamma (Homo sapiens, UniProt P63092); modulator; 100 µM, without A2AR; baseline: Gs alone).
`Cc1ccc(C)c(N2C(=O)c3ccc(-c4nc(-c5ccc6[nH]nnc6c5)no4)cc3C2=O)c1`: activity class “inactive” (Kelch-like ECH-associated protein 1, with NRF2 (Mus musculus, UniProt Q9Z2X8); binding; concentration not given, biochemical).
`CC(NC(=O)CCCc1ccc2ccc3cccc4ccc1c2c34)C(=O)NO` (stereo not drawn) gave a TΔS of 6.1 kcal/mol (HDAC8 (Homo sapiens, UniProt Q9BY41); ITC; Hepes buffer; pH 7.5).
For `Cn1c(SCc2ccccc2Cl)nc(=O)c2c1NC(=O)CC2c1ccc2c(c1)OCCO2` (stereo not drawn), the Hill slope was -1.7 (Protein lin-28 homolog A (Mus musculus, UniProt Q8K3Y3)).
The remaining binding of `C=CC(=O)N1CCC(COCC(=O)N2CCN(c3nc(-c4cnc(N)nc4C(F)F)nc(N4CCOC[C@@H]4C)n3)CC2)CC1` is reported as 71% (VRK2 (Homo sapiens, UniProt Q86Y07); KINOMEscan; 1 µM).
For `NC(=O)NOCCCCCCCCCCCCCC[P+](c1ccccc1)(c1ccccc1)c1ccccc1.O=C([O-])C(F)(F)F`, “oxygen consumption rate” read 22.9 ± 5.25% (MT-CYB/UQCRFS1; complex III-dependent respiration, Seahorse XF96; HCT-116; 6 µM, 24 h; baseline: control).
For `O=c1nc(SCc2cc(F)cc(C(F)(F)F)c2)nc(SCc2ccc3nc(Cl)ccc3c2)[nH]1`, “ATP hydrolysis rate” read 2.31 µM/min and 1.67 µM/min (TOP2A; ATPase activity; 15.6 µM, with: ATP 2 mM).
The reaction rate of `Nc1nc2c(ncn2[C@@H]2O[C@H](COP(=O)(O)O)[C@@H](O)[C@H]2O)c(=O)[nH]1` is reported as 0.977 s⁻¹ and 0.773 s⁻¹ and 0.758 s⁻¹ (GUK1 (Homo sapiens, UniProt Q16774, R41A); enzyme activity, NADH-coupled; 1000 µM).
`O=C(O)c1ccc(Nc2ncc3c(n2)-c2ccc(Cl)cc2C(c2c(F)cccc2F)=NC3)cc1` has a remaining activity of 36% (Fgr(h); kinase activity; 1 µM).
`NCCCCC(=O)O` gave a fraction bound of 0 (SLC6A6 (Homo sapiens, UniProt P31641, Y138A); binding, microscale thermophoresis; 30.5 nM, fitted curve; higher = more binding).
`COc1ccc(C[C@H](N)C(=O)N[C@H]2[C@@H](O)[C@H](n3cnc4c(N(C)C)ncnc43)O[C@@H]2CO)cc1` has an FLuc/RLuc ratio of 0.193 (Protein transport protein Sec61 subunit alpha isoform 1 (Homo sapiens, UniProt P61619); Sec61-dependent translocation, inhibitor, item: CD4 signal peptide-FLuc reporter; HEK293; concentration not given; baseline: mock).
`O=CNc1ccc(Br)cc1C=O` — result for “share of total products”: 0.5% (Dehaloperoxidase B ferric; product, HPLC; with: 5-bromoindole 500 µM, H2O2 1000 µM).
`CCN1CCC[C@H]1CNC(=O)c1c(O)c(Cl)cc(Cl)c1OC`: “log2 fold change” -0.00471 (Probable G-protein coupled receptor 156 (GPR156, Homo sapiens, UniProt Q8NFN8); β-arrestin recruitment, TANGO luminescence, item: GPR156; concentration not given; baseline: basal luminescence).
`NC(=O)NOCCCCCCCCCC[P+](c1ccccc1)(c1ccccc1)c1ccccc1.O=C([O-])C(F)(F)F`: “oxygen consumption rate” 74.1 ± 7.58% (MT-CYB/UQCRFS1; complex III-dependent respiration, Seahorse XF96; HCT-116; 12.5 µM, 24 h; baseline: control).
The activation of `CCCCC[C@H](O)/C=C/[C@H]1C(=O)C[C@H](O)[C@@H]1C/C=C\CCCC(=O)O` is reported as 102% (PTGDR; agonist; 1.25 µM).
`CN(C)C(=O)c1cc2cnc(Nc3ccc(N4CCNCC4)cn3)nc2n1C1CCCC1`: enzyme activity “no effect” (PDE3B (Homo sapiens, UniProt Q13370); HTRF; 0.3 to 10 µM).
`CC(=O)N[C@@H](C)C(=O)N[C@@H](CC(N)=O)C(=O)NCC(=O)N[C@@H](CC(N)=O)C(=O)N[C@@H](C)C(=O)N[C@@H](CC(N)=O)C(=O)N[C@@H](CCC(=O)O)C(=O)N[C@@H](CCC(=O)O)C(=O)N[C@@H](CC(N)=O)C(=O)NCC(=O)N[C@@H](CCC(=O)O)C(=O)N[C@@H](CCC(N)=O)C(=O)N[C@@H](CCC(=O)O)C(=O)N[C@@H](C)C(=O)N[C@@H](CC(=O)O)C(=O)N[C@@H](CC(N)=O)C(=O)N[C@@H](CCC(=O)O)C(=O)N[C@H](C(=O)N[C@@H](CC(=O)O)C(N)=O)C(C)C` gave a ΔH of -17.53 ± 0.093 kcal/mol (KEAP1 Kelch domain; binding, ITC; pH 7, 298.15 K).
`c1ccc(C(NCc2cccnc2)(c2ccccc2)c2ccccc2)cc1` has a potency increase of ~120 fold (KCNQ1 (Homo sapiens, UniProt P51787, E160R/R231E); baseline: wild type).
For `N[C@H]1[C@H](O[C@H]2[C@H](O)[C@@H](N)[C@H](O[C@H]3[C@H](O)[C@@H](N)[C@H](O[C@H]4[C@H](O)[C@@H](N)[C@H](O[C@H]5[C@H](O)[C@@H](N)C(O)O[C@@H]5CO)O[C@@H]4CO)O[C@@H]3CO)O[C@@H]2CO)O[C@H](CO)[C@@H](O)[C@@H]1O` (stereo partly drawn), “competition of LCO binding” read 7% and 5.27% and 0.0913% (LysM receptor-like kinase (Brachypodium distachyon, UniProt A0A0Q3FRN3); radioligand binding, competition binding; membrane fractions; 2 µM, with: radiolabelled LCO-V(C18:1,NMe)).
`CCCN(CCC)c1ccc(C(=O)NCCn2c(C)cc3ccccc32)cc1` has a selectivity ratio of > 275 fold (PTGDR; receptor antagonism; C6 glioma; baseline: EP2 over DP1).
Under “dissociation rate constant”, `CC(C)CC(=O)N[C@H](C(=O)N[C@H](C(=O)N[C@@H](CC(C)C)[C@@H](O)CC(=O)N[C@@H](C)C(=O)N[C@@H](CC(C)C)[C@@H](O)CC(=O)NCCCC[C@H](NC(=O)CCOCCOCCNC(=O)CN1CCN(CC(=O)O)CCN(CC(=O)O)CC1)C(=O)O)C(C)C)C(C)C` is recorded as 0.000215 s⁻¹ (Cathepsin D (CTSD, Homo sapiens, UniProt P07339); surface plasmon resonance).
Under “oxygen consumption rate”, `NC(=O)NOCCCCCCCCCCCC[P+](c1ccccc1)(c1ccccc1)c1ccccc1.O=C([O-])C(F)(F)F` is recorded as 51.3 ± 4.32% (MT-CYB/UQCRFS1; complex III-dependent respiration, Seahorse XF96; HCT-116; 2.5 µM, 24 h; baseline: control).
The decatenated DNA of `Cc1nc(CSc2nc(SCc3ccc(C(C)C)cc3)nc(=O)[nH]2)cs1` is reported as 0% (TOP2A; decatenation; 125 µM, replicate 1).
For `C=CC(=O)N1CCC[C@@H](n2nc(-c3ccc(Oc4ccccc4)cc3)c3c(N)ncnc32)C1`, the remaining activity was 158% (MUSK (Homo sapiens, UniProt O15146); 0.1 µM).
For `O=C1C=Nc2ccc(Br)cc21`, “share of total products” read 40.1% (Dehaloperoxidase B ferric; product, HPLC; with: 5-bromoindole 500 µM, H2O2 50 µM).
With `Nc1ncnc2c1ncn2[C@@H]1O[C@H](COP(=O)(O)OP(=O)(O)OP(=O)(O)O)[C@@H](O)[C@H]1O` the Hill coefficient was 1.5 ± 0.2 (P2X purinoceptor 2 (P2rx2, Rattus norvegicus, UniProt P49653, K308A/K69A); agonist; cells expressing WT-K308A-K69A concatemer).
With `CN1CCN(c2cc(-c3ccncc3)c(-c3ccc4ccccc4c3)nn2)CC1` the activation was 0.1% (PTGDR; agonist, FLIPR; 12.5 µM).
`[O-][S+]1CCCCS1` (stereo not drawn) has a target engagement of 49.7% (SOD1 (Homo sapiens, UniProt P00441, G94A); intact protein LC-MS; SOD1 G93A transgenic mice, whole blood; intravenous, 10 mg/kg, 8 h, mean of two mice).
For `CC1=C(/C=C/C(C)=C/C=C/C(C)=C/C=O)C(C)(C)CCC1`, the relative koff was 2.3 ± 0.05 (Rhodopsin (RHO, Bos taurus, UniProt P02699, F273W); retinal release, Trp FRET; lipid bicelles; 28 °C, F273W mutant; baseline: wild-type rhodopsin).
Under “thermal stability ratio”, `O=C(COP(=O)(O)O)[C@@H](O)[C@H](O)[C@H](O)COP(=O)(O)O` is recorded as 0.636 and 0.389 and 0.5 (Gem-associated protein 5 (Homo sapiens, UniProt Q8TEQ6); thermal proteome profiling, item: GEMIN5; HepG2 cell lysate; concentration not given, 57 over 37 °C; baseline: compound over control).
For `Nc1ncnc2c1ncn2[C@@H]1O[C@H](COP(=O)(O)OP(=O)(O)O)[C@@H](O)[C@H]1O`, the ΔH was -0.838 kcal/mol (GUK1 (Homo sapiens, UniProt Q16774); ITC; molar ratio 1.319).
`CC[C@H](C)[C@H](NC(C)=O)C(=O)N[C@@H](CC(N)=O)C(=O)N[C@H](C(=O)N[C@@H](CCCNC(=N)N)C(=O)N[C@@H](CCCCN)C(=O)N[C@@H](CCCNC(=N)N)C(=O)N[C@@H](CC(N)=O)C(=O)N[C@H](C(=O)N[C@@H](CCC(=O)O)C(=O)N[C@@H](CO)C(=O)NCC(=O)N[C@@H](CCC(=O)O)C(=O)N[C@@H](CCC(=O)O)C(=O)N[C@@H](CCC(=O)O)C(=O)N[C@@H](CC(C)C)C(=O)N[C@@H](C)C(=O)N[C@@H](CO)C(=O)N[C@@H](CCCCN)C(=O)N[C@@H](CC(C)C)C(=O)N[C@@H](CC(=O)O)C(N)=O)C(C)C)C(C)C` gave a TΔS of -10.6 kcal/mol (KEAP1 Kelch domain; binding, ITC; pH 7, 298.15 K).
`[H]/N=C(/N)NCC(=O)O`: “normalised MST signal” -0.0331 (SLC6A6 (Homo sapiens, UniProt P31641, L306A); binding, microscale thermophoresis; 125 µM, room temperature, with: 50 nM labelled protein; higher = more binding).
For `CC(=O)Nc1ccc(O)cc1`, “chemical shift change” read -0.086 ppm (BRD4 (Homo sapiens, UniProt O60885); 19F NMR, item: tyrosine 118; 188 µM; baseline: free protein).
For `Nc1nc2c(ncn2[C@@H]2O[C@@H]3COP(=O)(O)O[C@H]4[C@@H](O)[C@H](n5cnc6c(=O)[nH]c(N)nc65)O[C@@H]4COP(=O)(O)O[C@H]3[C@H]2O)c(=O)[nH]1`, the -TΔS was -6.9 kcal/mol (Cell cycle histidine kinase CckA, DHp-CA domains (Caulobacter vibrioides, UniProt Q9X688); ITC; 12 °C, with: AMPPNP 5 mM).
Under “oxygen consumption rate”, `NC(=O)NOCCCCCCCCCCCCCCCC[P+](c1ccccc1)(c1ccccc1)c1ccccc1.O=C([O-])C(F)(F)F` is recorded as 89.4% (MT-CYB/UQCRFS1; complex III-dependent respiration, Seahorse XF96; HCT-116; 0.1 µM, 24 h; baseline: control).
With `Nc1ccc(C(=O)O)cc1` the current density was -3.13 pA/pF and -10.4 pA/pF and -2.85 pA/pF and -1.63 pA/pF and -4 pA/pF and -5.46 pA/pF (BEST1, with wild-type BEST1 (Homo sapiens, UniProt O76090, L234P); ion current, whole-cell patch clamp; HEK293 co-expressing mutant and wild-type; concentration not given, voltage -20 mV).
`NC(=O)NOCCCCCCCCCCCCCCCCCCCC[P+](c1ccccc1)(c1ccccc1)c1ccccc1.O=C([O-])C(F)(F)F`: “oxygen consumption rate” 101% (MT-CYB/UQCRFS1; complex III-dependent respiration, Seahorse XF96; HCT-116; 0.2 µM, 24 h; baseline: control).
For `Nc1ncnc2c1ncn2[C@@H]1O[C@H](COP(=O)(O)CP(=O)(O)OP(=O)(O)O)[C@@H](O)[C@H]1O`, the calcium influx was 31.9% and 38.5% and 24.8% and 24.3% (P2X purinoceptor 1 (P2RX1, Homo sapiens, UniProt P51575, D97A); calcium influx; 100 nM; baseline: ionomycin response).
